{"data": "Measured values gathered from unrelated publications", "organism": "Klebsiella pneumoniae", "note": "± marks the error that the study gave."}
{"SMILES": "CC[C@H](C)[C@H](NC(=O)[C@H](CCCCN)NC(=O)[C@H](CC(C)C)NC(=O)[C@H](CC(C)C)NC(=O)[C@H](C)NC(=O)CNC(=O)[C@H](CC(C)C)NC(=O)[C@@H](N)Cc1ccccc1)C(=O)NCC(=O)N[C@@H](C)C(=O)N[C@@H](CCCCN)C(=O)N[C@@H](CC(C)C)C(=O)N[C@@H](CC(C)C)C(=O)N1CCC[C@H]1C(=O)N[C@@H](CO)C(=O)N[C@H](C(=O)N[C@H](C(=O)NCC(=O)N[C@@H](CC(C)C)C(=O)N[C@@H](Cc1ccccc1)C(=O)N[C@@H](CCCCN)C(=O)N[C@@H](CCCCN)C(=O)N[C@@H](CCCCN)C(=O)N[C@@H](CCC(N)=O)C(=O)N[C@@H](CCC(N)=O)C(=O)O)C(C)C)C(C)C", "assay": "broth microdilution", "system": "ATCC 13883", "conditions": "20 h, 37 °C", "MIC": "23.7 to 47.4 µM"}
{"SMILES": "CC[C@H](C)[C@H](NC(=O)CNC(=O)[C@H](CC(=O)O)NC(=O)[C@H](CCCNC(=N)N)NC(=O)[C@@H](NC(=O)[C@H](CC(N)=O)NC(=O)[C@H](CCCNC(=N)N)NC(=O)CNC(=O)[C@@H](NC(=O)[C@H](CCCCN)NC(=O)[C@H](CCC(=O)O)NC(=O)[C@@H](NC(=O)[C@H](CCCCN)NC(=O)[C@H](CCCCN)NC(=O)[C@H](Cc1ccccc1)NC(=O)[C@@H](NC(=O)[C@H](CCCCN)NC(=O)[C@H](Cc1c[nH]c2ccccc12)NC(=O)[C@@H](N)CCCCN)[C@@H](C)CC)[C@@H](C)CC)C(C)C)C(C)C)C(=O)N[C@H](C(=O)N[C@@H](CCCCN)C(=O)N[C@@H](C)C(=O)NCC(=O)N1CCC[C@H]1C(=O)N[C@@H](C)C(=O)N[C@H](C(=O)N[C@@H](CCC(N)=O)C(=O)N[C@H](C(=O)N[C@H](C(=O)NCC(=O)N[C@@H](CCC(N)=O)C(=O)N[C@@H](C)C(=O)N[C@H](C(=O)N[C@@H](CO)C(=O)N[C@H](C(=O)N[C@@H](C)C(=O)N[C@@H](CCCCN)C(N)=O)[C@@H](C)CC)[C@@H](C)O)C(C)C)C(C)C)C(C)C)[C@@H](C)CC", "assay": "broth microdilution", "system": "ATCC 700603", "conditions": "20 h, 37 °C", "MIC": "16.2 ± 1.9 µg/mL"}
{"SMILES": "CC[C@H](C)CCCCC(=O)N[C@@H](CCN)C(=O)N[C@H](C(=O)N[C@@H](CCN)C(=O)N[C@H]1CCNC(=O)[C@H]([C@@H](C)O)NC(=O)[C@H](CCN)NC(=O)[C@H](CCN)NC(=O)[C@H](CC(C)C)NC(=O)[C@@H](CC(C)C)NC(=O)[C@H](CCN)NC1=O)[C@@H](C)O", "assay": "broth microdilution", "system": "ATCC 13883", "conditions": "20 h, 37 °C", "MIC": "0.02 to 0.11 µM"}
{"SMILES": "C[C@@H](O)[C@H]1C(=O)N2C(C(=O)O)=C(SCCN=CN)C[C@H]12", "system": "VIM-24-producing", "MIC": "1 µg/mL"}
{"SMILES": "CC[C@H](C)[C@H](NC(=O)[C@H](CC(=O)O)NC(=O)[C@H](Cc1ccccc1)NC(=O)[C@H](CC(C)C)NC(=O)CN)C(=O)N[C@H](C(=O)N[C@@H](CCCCN)C(=O)N[C@@H](CCCCN)C(=O)N[C@H](C(=O)N[C@H](C(=O)N[C@@H](CCCCN)C(=O)N[C@@H](CC(C)C)C(=O)N[C@@H](CC(C)C)C(=O)N[C@@H](CCCCN)C(N)=O)C(C)C)C(C)C)C(C)C", "system": "ATCC 700603, CAMHB", "conditions": "18 h, 37 °C", "MIC": "> 20 µM"}
{"SMILES": "CC(C)C[C@H](NC(=O)[C@H](CCCNC(=N)N)NC(=O)[C@@H]1CCCN1C(=O)[C@@H]1CCCN1C(=O)[C@H](CCCNC(=N)N)NC(=O)[C@@H]1CCCN1)C(=O)N1CCC[C@H]1C(=O)N[C@@H](CCCNC(=N)N)C(=O)N1CCC[C@H]1C(=O)N[C@@H](CCCNC(=N)N)C(=O)N1CCC[C@H]1C(=O)N[C@@H](CCCNC(=N)N)C(=O)N1CCC[C@H]1C(=O)N[C@@H](CC(C)C)C(=O)N1CCC[C@H]1C(=O)N[C@@H](Cc1ccccc1)C(=O)N1CCC[C@H]1C(=O)N[C@@H](CCCNC(=N)N)C(=O)N1CCC[C@H]1C(=O)NCC(=O)O", "assay": "broth microdilution", "system": "NTUH K2044, Mueller Hinton broth", "conditions": "24 h, 37 °C", "MIC": "14 µM"}
{"SMILES": "CC[C@H](C)[C@H](NC(=O)[C@H](CC(=O)O)NC(=O)[C@H](Cc1ccccc1)NC(=O)[C@H](CC(C)C)NC(=O)CN)C(=O)N[C@H](C(=O)N[C@@H](CCCCN)C(=O)N[C@@H](CCCCN)C(=O)N[C@H](C(=O)N[C@H](C(=O)NCC(=O)N[C@@H](CC(C)C)C(=O)N[C@@H](CC(C)C)C(=O)N[C@@H](CCCCN)C(N)=O)C(C)C)C(C)C)C(C)C", "system": "ATCC 700603, CAMHB", "conditions": "18 h, 37 °C", "MIC": "> 21 µM"}
{"SMILES": "CC[C@H](C)[C@H](NC(=O)[C@@H]1CCCN1C(=O)[C@H](CCCNC(=N)N)NC(=O)[C@@H]1CCCN1C(=O)CNC(=O)[C@@H]1CCCN1C(=O)[C@H](CCCNC(=N)N)NC(=O)[C@@H]1CCCN1C(=O)[C@H](Cc1ccccc1)NC(=O)[C@@H]1CCCN1C(=O)[C@H](CC(C)C)NC(=O)[C@@H]1CCCN1C(=O)[C@H](CCCNC(=N)N)NC(=O)[C@@H]1CCCN1C(=O)[C@@H](NC(=O)[C@@H]1CCCN1C(=O)[C@H](CCCNC(=N)N)NC(=O)[C@@H]1CCCN1C(=O)CNC(=O)[C@@H]1CCCN1C(=O)[C@H](CCCNC(=N)N)NC(=O)[C@@H]1CCCN1C(=O)[C@H](Cc1ccccc1)NC(=O)[C@@H]1CCCN1C(=O)[C@H](CC(C)C)NC(=O)[C@@H]1CCCN1C(=O)[C@H](CCCNC(=N)N)NC(=O)[C@@H]1CCCN1C(=O)[C@@H](NC(=O)[C@@H]1CCCN1C(=O)[C@H](CCCNC(=N)N)NC(=O)[C@@H]1CCCN1)[C@@H](C)CC)[C@@H](C)CC)C(=O)N1CCC[C@H]1C(=O)N[C@@H](CCCNC(=N)N)C(=O)N1CCC[C@H]1C(=O)O", "assay": "broth microdilution", "system": "NTUH K2044, Mueller Hinton broth", "conditions": "24 h, 37 °C", "MIC": "> 32 µM"}
{"SMILES": "CCCCCCCCCC(=O)Oc1ccc(/C=C/C(=O)CC(=O)/C=C/c2ccc(OC(=O)CCCCCCCCC)c(OC)c2)cc1OC", "assay": "microbial growth, broth dilution", "conditions": "24 h", "MIC": "0.369 µM"}
{"SMILES": "CC(C)C[C@H](NC(=O)[C@H](C)NC(=O)[C@H](CCCCN)NC(=O)[C@H](CC(C)C)NC(=O)[C@H](CC(C)C)NC(=O)[C@H](CCCCN)NC(=O)[C@H](CCCCN)NC(=O)[C@H](CC(C)C)NC(=O)[C@H](CC(C)C)NC(=O)[C@H](CCCCN)NC(=O)[C@H](CC(C)C)NC(=O)[C@H](CC(C)C)NC(=O)[C@@H](N)CCCCN)C(=O)NCC(N)=O", "system": "ATCC 700603, CAMHB", "conditions": "18 h, 37 °C", "MIC": "> 20 µM"}
{"SMILES": "CC[C@H](C)[C@H](NC(=O)[C@H](CCCNC(=N)N)NC(=O)[C@@H](N)CCCNC(=N)N)C(=O)N[C@@H](CCCNC(=N)N)C(=O)N1CCC[C@H]1C(=O)N[C@@H](CCCNC(=N)N)C(=O)N1CCC[C@H]1C(=O)N1CCC[C@H]1C(=O)N[C@@H](CCCNC(=N)N)C(=O)N[C@@H](CC(C)C)C(=O)N1CCC[C@H]1C(=O)N[C@@H](CCCNC(=N)N)C(=O)N1CCC[C@H]1C(=O)O", "assay": "broth microdilution", "system": "NTUH K2044, Mueller Hinton broth", "conditions": "24 h, 37 °C", "MIC": "> 77 µM"}
{"SMILES": "CC[C@H](C)[C@H](NC(=O)[C@H](CC(=O)O)NC(=O)[C@H](Cc1ccccc1)NC(=O)[C@H](CC(C)C)NC(=O)CN)C(=O)N[C@H](C(=O)N[C@@H](CCCCN)C(=O)N[C@@H](CCCCN)C(=O)N[C@H](C(=O)N[C@H](C(=O)NCC(=O)N[C@@H](C)C(=O)N[C@@H](CC(C)C)C(=O)N[C@@H](CCCCN)C(N)=O)C(C)C)C(C)C)C(C)C", "system": "ATCC 700603, CAMHB", "conditions": "18 h, 37 °C", "MIC": "> 22 µM"}
{"SMILES": "CC[C@H](C)[C@H](NC(=O)[C@H](CCCNC(=N)N)NC(=O)[C@@H](N)CCCNC(=N)N)C(=O)N[C@@H](CCCNC(=N)N)C(=O)N1CCC[C@H]1C(=O)N[C@@H](CCCNC(=N)N)C(=O)N1CCC[C@H]1C(=O)N1CCC[C@H]1C(=O)N[C@@H](CCCNC(=N)N)C(=O)N[C@@H](CC(C)C)C(=O)N1CCC[C@H]1C(=O)N[C@@H](CCCNC(=N)N)C(=O)N1CCC[C@H]1C(=O)N[C@@H](CCCNC(=N)N)C(=O)N1CCC[C@H]1C(=O)N[C@@H](CCCNC(=N)N)C(=O)N1CCC[C@H]1C(=O)N[C@@H](CC(C)C)C(=O)N1CCC[C@H]1C(=O)N[C@@H](Cc1ccccc1)C(=O)N1CCC[C@H]1C(=O)N[C@@H](CCCNC(=N)N)C(=O)N1CCC[C@H]1C(=O)NCC(=O)O", "assay": "broth microdilution", "system": "NTUH K2044, Mueller Hinton broth", "conditions": "24 h, 37 °C", "MIC": "0.7 µM"}
{"SMILES": "CC[C@H](C)[C@H](NC(=O)[C@H](Cc1ccccc1)NC(=O)[C@H](CC(=O)O)NC(=O)[C@H](CCCCN)NC(=O)[C@H](C)NC(=O)[C@H](CCCCN)NC(=O)[C@H](CC(N)=O)NC(=O)[C@H](CC(C)C)NC(=O)[C@H](Cc1c[nH]c2ccccc12)NC(=O)[C@H](CCC(=O)O)NC(=O)[C@H](CCCCN)NC(=O)[C@@H](NC(=O)CNC(=O)[C@H](C)N)[C@@H](C)O)C(=O)N[C@@H](CCCCN)C(=O)N[C@@H](CCC(=O)O)C(=O)N[C@@H](CCCCN)C(=O)NCC(=O)N[C@@H](CC(C)C)C(=O)NCC(=O)N[C@@H](CCSC)C(=O)N[C@@H](CC(C)C)C(=O)N[C@@H](CO)C(=O)N[C@@H](C)C(=O)N[C@@H](C)C(=O)N[C@@H](C)C(=O)N[C@@H](CC(N)=O)C(=O)N[C@@H](C)C(=O)N[C@@H](C)C(=O)N[C@@H](CC(C)C)C(=O)N[C@@H](CC(N)=O)C(=O)O", "assay": "broth microdilution", "system": "ATCC 13883", "conditions": "20 h, 37 °C", "MIC": "> 40 µM"}
